Results pooled from the literature.
A part holds a random share of what one study measured. Positions count from the first letter of the parent shown.

Study 1
Target: CCNB1, cyclin fold, Cln2 fusion (human)
Technique: yeast growth competition, sequencing
Sample: yeast
Notes: weak parent motif
Baseline: not given
Reading: higher = stronger binding
Quantity: normalised enrichment score
Parent: WEE1 docking peptide (human); HKTFRKLRLFDTP
L7P: -0.0494
R8Y: 1.38
P13A: 0.575
L7F: 0.522
R5A: -0.791
R8W: 1.73
F4E: 0.215
D11T: 0.623
R5W: 0.375
L7G: 1.01
K6N: 0.503
T3A: 0.222
F4M: 0.614
T12W: 0.864
L9D: 0.315
L9R: -0.311
R5C: -0.574
F4W: 1.18
R8A: -0.543
K2Y: 0.92
P13K: 0.764
T3S: -0.793

Study 2
Target: Histone acetyltransferase KAT6A, winged helix 2, GST fusion (KAT6A, Homo sapiens, UniProt Q92794, residues 85-181)
Technique: protein binding microarray
Form: double-stranded DNA, one strand shown
Sample: in vitro
Tested at: not given
Notes: 8-mer, flanks averaged, mean of 2 arrays, mostly near background
Baseline: not given
Reading: higher = stronger binding
Quantity: E-score
Construct (chain): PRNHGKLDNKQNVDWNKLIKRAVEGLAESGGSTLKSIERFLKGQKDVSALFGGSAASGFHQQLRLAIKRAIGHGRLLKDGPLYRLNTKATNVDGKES
GAGCATCC: 0.103
ACGGTAGC: 0.0427
ACCCATTC: 0.0285
GGAATCTA: -0.185
GTAAACTA: 0.0975
GAGGTGAC: 0.16
GAAGGAGC: -0.156
CCACTAGG: 0.012
ACCCGGAC: 0.0294
ATAGTAAG: -0.0454
CAAGGTAG: -0.0309
TTCAGAAA: 0.0717
CCTACTGA: -0.139
AAGCCTTA: -0.188
ATTGATAA: 0.114
CCCGGAAG: 0.0613
CACTTATG: -0.0774
TTACATAA: 0.00123
GATGAACC: 0.0638
AGGTGGCG: 0.0487
CCTAAAGC: -0.0346
TGGAGACA: -0.0503
ACCCTCTG: 0.0387
GGGATTGA: 0.00494
GAATTTTA: 0.0923

Study 3
Target: RING finger protein unkempt homolog, zinc fingers 1-6, GST-SBP tag (UNK, Homo sapiens, UniProt Q9C0B0, residues 30-357)
Chain of UniProt Q9C0B0 (30-357, looked up): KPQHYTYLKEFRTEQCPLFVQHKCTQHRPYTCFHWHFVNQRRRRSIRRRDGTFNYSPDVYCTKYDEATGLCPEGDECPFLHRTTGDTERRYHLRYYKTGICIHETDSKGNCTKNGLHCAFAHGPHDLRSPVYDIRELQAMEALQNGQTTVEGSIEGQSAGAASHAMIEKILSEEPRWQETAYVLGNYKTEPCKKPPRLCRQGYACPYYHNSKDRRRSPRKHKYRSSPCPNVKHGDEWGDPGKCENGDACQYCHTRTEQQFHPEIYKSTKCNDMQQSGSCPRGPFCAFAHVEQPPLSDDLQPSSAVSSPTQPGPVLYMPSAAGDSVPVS
Technique: RNA Bind-n-Seq
Form: RNA
Sample: in vitro
Tested at: not given
Notes: RNA with constant flanks, ends assumed
Baseline: input RNA pool
Reading: higher = stronger binding
Quantity: bound/input enrichment
Shared flanks, not repeated: GGGAGUUCUACAGUCCGACGAUC … CAACAGAGGAUUGAGCAUCA
CAGGGACUCUGGUGCCAAAUCCAGAAAGAUCUGCUCUGCUGCCCUGAACUCUUACGGCAAUUCCGGUUUCUCAUUUUUCUUUUCUUUUUACAUAUGUACAAAUUGUUUUAAGCUUUGGCC: 0.508 ratio
UGCUUCCUGGUCCUUAGAGGACUAAAAACAAGACCCUCAUUCCCACUUUCAUUUCCACUCCCGCAAAAACUGGGCUUGCGUUUUUCUCCAACUCCUCGUUUAUAUCCUCCCUUCCAUGUC: 0.578 ratio
CUUUGAAAGAUGAACAGUGUAGCCUGUCUGAAACUGUAGAGCCUUCAGGUGUCUUUAUUUAACCGGUUGGGAGUGUGCAAGGGCUUCCUUAGCAGGGACAGAAGGCAAUCCUUUCAUGGU: 0.291 ratio
GAUGUCAGGACCAUUCUGCUCUCCAUCCAGAGCCUUCUAGGAGAACCCAACAUUGACCGUCCCUUGAACACACAUGCUGCCGAGCUCUGGAAAAACCCCACAGCUUUUAAGAAGUACCUG: 0.216 ratio
AAUGAAUCAUUGAACAAUCUUUUUAUUACAGAAGAAGAUUAUCAGGCUCUGCGAACAUCAACCGAUGCUUAUGACAACUUUGACAAUAUCUCGCUUGCUCAGCGUUUGGAAAAACAUGAA: 0.0482 ratio
UACCAGGGAAUCUGGAAACCAAGGAAAAUACCAAAUCCAGAUUUCUUUGAAGACCCCGAACCUUUUAAGAUGACUCCUUUCAGUGCUAUUGGUUUGGAGCUCUGGUCCAUGACAUCCGAC: 0.0873 ratio
CAGUGGGAUGGGGAGCAAAGUCCCAGAGGGGAGCGCAACAGGUGGAAGUAUGAGGAGUUUUCCGAUCAUCCAGGCCAUAUCCACAGUAGUCCUUGCCACGAAAGGCCCAACAAUGUCUCU: 0.104 ratio
GGCGGCAGCCCUGGUUAGCUGAUCACACCCAGGUGUCAUGAUGCCAACAUCCUAGGUUCCCCGUUUUUGGUUUUGGUAACUUAGUGCGUAGCUCCAGGUGCCGCAUCUACUCGCCAAUCU: 0.174 ratio

Study 4
Target: RNA binding protein fox-1 homolog 2, RRM domain, GST-SBP tag (RBFOX2, Homo sapiens, UniProt O43251-10, residues 100-194)
Technique: RNA Bind-n-Seq
Form: RNA
Sample: in vitro
Tested at: 365 nM
Notes: natural RNA segment, single round, ends assumed
Baseline: no-protein control
Reading: higher = stronger binding
Quantity: RBNS enrichment (R)
Shared flanks, not repeated: GGGAGUUCUACAGUCCGACGAUC … UGGAAUUCUCGGGUGCCAA
Target sequence (chain): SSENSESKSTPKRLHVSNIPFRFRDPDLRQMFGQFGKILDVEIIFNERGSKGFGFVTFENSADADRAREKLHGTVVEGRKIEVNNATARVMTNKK
UUUUAUUUAACUUGGGGAUGGAAUGGGGAUAGCAUACAUUUUAUUUGUACAAUAUUUAACAAUCACUUAUCCAAGGUGGGGUUUUAUGGGGAUUUUAAGCUUUCUGUUAA: 0.724
AAUUUCUGAAGCUUAGUGUAAUUGAGUGGUGGUUGUUAUUCAAUAAAAUUAUUCCCAAAAGUGUUUCUCCUAAGAGUGCAGUUCCCAUGAGUCACUUCCUGAACCCAUUG: 0.332
UUAGCUAUUGUUUGCCUGCACAUACAUGUUGUAAUAUGCACAGUGAUUACAACCUUUAAAGCAAGAGGAGGCGAGUUAAUUUGGAUGAGUGUGAUUUUGCUGAUUGAAUG: 9.62
UAAUAUGUGCAGGGCAGAUGUCACUACUGAAUAUCACAUCAAUGCUAGGGCUGUAUUUACUGUCACACACAGGCACCGGUAAGUGACUUUACCGGUGAAAGUCACAGGUA: 0.318
CUUGAACUUCUGAUCCUGCCUAUCUGUUCUAUGUGAGUGGCAUCUGGGCCCCUAACCUGUCAGUUCACCCAUCUAGACCAGAGUCUGUAGCCAGACCUGGCCCACUGCCU: 0.413
UAAUGCUGCUGAUAAAGACGUACCCGAGACUGGGAAGAAAAAGAGGUUUACUUGGACUUACAGUUCCACAUGGCUGGGGAGGCCUCAGAAUCAUGGCGGGAGGUGAAAGG: 0.751
GAGGGUGAGGAUCAGUGUAUUAGAGCAUCUUCGGAGUGUUACCUACCAGUGUUGUCCAGAAGAAGCAGAGACUCAGCGCGGCUGUUGUGAGGUCUGCCUCACACCACCCA: 0.975
GCCAGACAGAGAGUAUUGCUGGAGGGUGAGAGAAUUGUGGAGACCAACUACCACAUAGCAAGAGCCCAGCUCUUGGGAGCAUUGAGAUGUAAGCUCAGGGUUACACAGUU: 0.254

Study 5
Target: Sal-like protein 4, full length isoform B (SALL4, Homo sapiens, UniProt Q9UJQ4-2, residues 1-616)
Technique: universal PBM
Form: double-stranded DNA, one strand shown
Sample: in vitro
Tested at: not given
Notes: 8-mer, flanks averaged, mean of replicates
Reading: higher = stronger binding
Quantity: E-score
Target sequence (chain): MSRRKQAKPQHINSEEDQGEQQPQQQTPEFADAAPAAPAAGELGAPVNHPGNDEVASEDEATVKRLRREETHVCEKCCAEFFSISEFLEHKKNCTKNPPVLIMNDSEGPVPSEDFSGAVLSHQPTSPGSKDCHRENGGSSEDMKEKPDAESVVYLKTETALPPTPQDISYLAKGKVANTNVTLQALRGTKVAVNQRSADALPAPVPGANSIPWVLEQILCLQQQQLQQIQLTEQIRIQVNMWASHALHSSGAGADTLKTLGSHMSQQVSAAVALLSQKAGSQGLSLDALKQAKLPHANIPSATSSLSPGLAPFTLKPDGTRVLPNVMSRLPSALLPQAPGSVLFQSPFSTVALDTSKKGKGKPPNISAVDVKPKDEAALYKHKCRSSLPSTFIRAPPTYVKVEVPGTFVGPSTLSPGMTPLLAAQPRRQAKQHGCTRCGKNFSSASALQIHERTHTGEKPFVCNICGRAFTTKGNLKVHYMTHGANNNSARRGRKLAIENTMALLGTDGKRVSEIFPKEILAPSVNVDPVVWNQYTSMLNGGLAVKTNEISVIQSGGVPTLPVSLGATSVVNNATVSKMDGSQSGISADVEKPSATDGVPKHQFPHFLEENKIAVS
CGTGACCC: -0.282
GAAATACC: 0.118
AGCGAGGA: -0.0446
ACAAATTG: 0.131
AAGCCAGC: -0.259
TTAACAAA: 0.29
AGGACATC: -0.152
GAAACGCA: -0.0826
GATGCGAA: 0.163
GCTGCAAA: 0.127
AATGGGAT: 0.044
GCCTGTTA: 0.0785
ACAACTTA: 0.166
AGTATCAG: -0.01
GCGTATAA: 0.175
ATCTGTTA: 0.26
CTTTCAAA: 0.205
CAACGGTA: -0.159
TCCATGCA: 0.0766
AATTGTGG: 0.142
ATGTTATG: 0.342

Some of these lines once more (study 1):
T3A: 0.222
R8W: 1.73
P13A: 0.575
L7G: 1.01
K6N: 0.503
R8A: -0.543
D11T: 0.623
